Results gathered from unrelated publications.
Compare with care: the assays were run in different laboratories.
ADCYAP1R1 del89-109: Pituitary adenylate cyclase-activating polypeptide type I receptor (ADCYAP1R1, Homo sapiens, UniProt P41586, del89-109)
UniProt P41586, sequence (whole entry, unmodified, looked up): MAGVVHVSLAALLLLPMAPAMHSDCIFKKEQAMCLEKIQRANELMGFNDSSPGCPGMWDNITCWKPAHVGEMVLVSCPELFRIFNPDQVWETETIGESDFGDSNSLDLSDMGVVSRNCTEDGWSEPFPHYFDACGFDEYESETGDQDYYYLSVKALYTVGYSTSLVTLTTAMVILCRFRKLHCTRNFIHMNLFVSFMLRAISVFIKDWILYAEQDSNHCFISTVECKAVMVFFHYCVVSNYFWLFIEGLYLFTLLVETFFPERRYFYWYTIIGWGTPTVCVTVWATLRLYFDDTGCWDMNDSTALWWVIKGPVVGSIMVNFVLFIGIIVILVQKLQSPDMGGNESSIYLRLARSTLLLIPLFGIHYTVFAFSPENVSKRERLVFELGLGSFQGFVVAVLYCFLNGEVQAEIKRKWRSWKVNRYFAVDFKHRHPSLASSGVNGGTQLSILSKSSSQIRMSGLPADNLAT
sdiA: Regulatory protein SdiA (sdiA, Escherichia coli, UniProt P07026)
UniProt P07026, sequence (whole entry, looked up): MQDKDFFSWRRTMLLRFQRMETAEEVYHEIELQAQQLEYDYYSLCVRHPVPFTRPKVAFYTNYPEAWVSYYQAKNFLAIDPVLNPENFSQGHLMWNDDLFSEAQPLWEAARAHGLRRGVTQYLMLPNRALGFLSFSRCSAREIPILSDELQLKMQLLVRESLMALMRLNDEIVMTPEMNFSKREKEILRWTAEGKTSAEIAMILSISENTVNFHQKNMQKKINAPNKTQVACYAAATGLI
UniProt P41143, sequence (whole entry, unmodified, looked up): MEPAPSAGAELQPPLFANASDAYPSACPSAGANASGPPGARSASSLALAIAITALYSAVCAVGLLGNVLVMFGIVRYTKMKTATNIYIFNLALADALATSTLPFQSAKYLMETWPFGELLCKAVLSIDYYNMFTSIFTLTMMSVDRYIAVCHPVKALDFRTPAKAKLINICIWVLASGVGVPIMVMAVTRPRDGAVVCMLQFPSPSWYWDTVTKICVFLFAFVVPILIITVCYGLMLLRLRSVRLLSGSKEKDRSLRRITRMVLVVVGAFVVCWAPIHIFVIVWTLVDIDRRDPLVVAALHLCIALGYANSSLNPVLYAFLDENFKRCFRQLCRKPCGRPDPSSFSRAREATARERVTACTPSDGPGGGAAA
UniProt P50391, sequence (whole entry, looked up): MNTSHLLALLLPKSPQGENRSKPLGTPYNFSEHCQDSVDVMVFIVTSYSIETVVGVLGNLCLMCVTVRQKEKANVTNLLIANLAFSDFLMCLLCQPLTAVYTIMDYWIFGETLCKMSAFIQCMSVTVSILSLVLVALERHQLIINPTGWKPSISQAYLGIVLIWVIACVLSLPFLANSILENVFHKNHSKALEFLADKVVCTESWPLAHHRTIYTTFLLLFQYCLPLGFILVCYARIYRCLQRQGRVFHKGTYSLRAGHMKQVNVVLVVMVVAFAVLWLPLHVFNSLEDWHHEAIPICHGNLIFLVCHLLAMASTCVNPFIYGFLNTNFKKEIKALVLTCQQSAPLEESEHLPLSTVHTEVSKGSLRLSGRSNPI
UniProt P08913, sequence (whole entry, looked up): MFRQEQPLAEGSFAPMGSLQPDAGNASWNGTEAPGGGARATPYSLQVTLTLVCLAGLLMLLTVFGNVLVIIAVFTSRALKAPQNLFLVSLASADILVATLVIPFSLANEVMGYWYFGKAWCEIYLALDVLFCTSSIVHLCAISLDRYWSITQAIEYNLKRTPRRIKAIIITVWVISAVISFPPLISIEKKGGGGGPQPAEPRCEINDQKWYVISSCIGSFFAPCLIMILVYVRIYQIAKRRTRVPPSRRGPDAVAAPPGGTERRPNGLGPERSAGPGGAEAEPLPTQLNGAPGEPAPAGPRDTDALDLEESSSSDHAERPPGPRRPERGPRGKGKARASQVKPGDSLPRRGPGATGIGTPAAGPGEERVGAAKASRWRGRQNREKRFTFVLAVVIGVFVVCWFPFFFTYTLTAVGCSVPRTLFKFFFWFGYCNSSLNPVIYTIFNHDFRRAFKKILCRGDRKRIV
UniProt Q9UK32, sequence (whole entry, looked up): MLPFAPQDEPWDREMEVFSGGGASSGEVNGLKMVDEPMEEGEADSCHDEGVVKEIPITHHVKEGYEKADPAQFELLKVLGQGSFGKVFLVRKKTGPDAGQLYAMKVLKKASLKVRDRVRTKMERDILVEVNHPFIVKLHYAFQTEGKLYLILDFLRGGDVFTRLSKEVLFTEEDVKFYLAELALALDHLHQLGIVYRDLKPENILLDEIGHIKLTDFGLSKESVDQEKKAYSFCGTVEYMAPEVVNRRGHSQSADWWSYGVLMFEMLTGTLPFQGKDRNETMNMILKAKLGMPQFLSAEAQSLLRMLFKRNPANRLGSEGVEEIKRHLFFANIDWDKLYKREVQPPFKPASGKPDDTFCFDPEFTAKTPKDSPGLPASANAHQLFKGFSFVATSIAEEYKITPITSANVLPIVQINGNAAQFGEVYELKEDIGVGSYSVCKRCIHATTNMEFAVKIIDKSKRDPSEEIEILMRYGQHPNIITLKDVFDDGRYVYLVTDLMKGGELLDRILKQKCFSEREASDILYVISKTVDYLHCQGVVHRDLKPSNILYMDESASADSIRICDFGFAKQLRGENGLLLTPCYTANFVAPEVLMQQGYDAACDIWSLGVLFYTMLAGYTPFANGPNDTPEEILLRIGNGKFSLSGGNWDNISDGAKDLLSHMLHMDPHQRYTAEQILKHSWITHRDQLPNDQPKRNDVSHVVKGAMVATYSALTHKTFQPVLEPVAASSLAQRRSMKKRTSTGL

Structure (SMILES) = O=C(N[C@@H]1c2ccccc2C[C@H]1N1CCCC1)c1ccc(-c2ccnc3[nH]ccc23)nc1; target = Ribosomal protein S6 kinase alpha-6, N-terminal kinase domain (RPS6KA6, Homo sapiens, UniProt Q9UK32); assay = binding, competition with immobilised ligand; measurement = Kd; result = 1010 nM
Structure (SMILES) = CSCC[C@H](NC(=O)[C@H](CCC(N)=O)NC(=O)[C@H](CCCCN)NC(=O)[C@H](CCCNC(=N)N)NC(=O)[C@H](Cc1ccc(O)cc1)NC(=O)[C@H](CCCNC(=N)N)NC(=O)[C@H](CO)NC(=O)[C@H](Cc1ccc(O)cc1)NC(=O)[C@H](CO)NC(=O)[C@H](CC(=O)O)NC(=O)[C@@H](NC(=O)[C@@H](N)Cc1ccccc1)[C@@H](C)O)C(=O)N[C@@H](C)C(=O)N[C@H](C(=O)N[C@@H](CCCCN)C(=O)N[C@@H](CCCCN)C(=O)N[C@@H](Cc1ccc(O)cc1)C(=O)N[C@@H](CC(C)C)C(=O)N[C@@H](C)C(=O)N[C@@H](C)C(=O)N[C@H](C(=O)N[C@@H](CC(C)C)C(=O)NCC(=O)N[C@@H](CCCCN)C(=O)N[C@@H](CCCNC(=N)N)C(=O)N[C@@H](Cc1ccc(O)cc1)C(=O)N[C@@H](CCCCN)C(=O)N[C@@H](CCC(N)=O)C(=O)N[C@@H](CCCNC(=N)N)C(=O)N[C@H](C(=O)N[C@@H](CCCCN)C(=O)N[C@@H](CC(N)=O)C(=O)N[C@@H](CCCCn1cc(C[C@H](NC(=O)CNC(=O)[C@H](CO)NC(=O)[C@H](CCCNC(=N)N)NC(=O)[C@H](CO)NC(=O)[C@H](CC(C)C)NC(=O)[C@H](CC(C)C)NC(=O)CNC(=O)[C@H](C)NC(=O)[C@H](CC(C)C)NC(=O)[C@H](CCCNC(=N)N)NC(=O)[C@H](Cc2c[nH]cn2)NC(=O)[C@@H](NC(=O)[C@@H](N)C(C)C)[C@@H](C)O)C(=O)N[C@H](C(=O)N[C@H](C(=O)N[C@@H](CCCCN)C(=O)N[C@@H](CC(N)=O)C(=O)N[C@@H](CC(N)=O)C(=O)N[C@@H](Cc2ccccc2)C(=O)N[C@H](C(=O)N2CCC[C@H]2C(=O)N[C@H](C(=O)N[C@@H](CC(N)=O)C(=O)N[C@H](C(=O)NCC(=O)N[C@@H](CO)C(=O)N[C@@H](CCCCN)C(=O)N[C@@H](C)C(=O)N[C@@H](Cc2ccccc2)C(N)=O)C(C)C)[C@@H](C)O)C(C)C)C(C)C)C(C)C)nn1)C(N)=O)C(C)C)C(C)C)C(C)C; target = ADCYAP1R1 del89-109; assay = cAMP accumulation, antagonist; setting = together with: VIP; measurement = Kb; result = 14.1 nM
Structure (SMILES) = C[C@@H](Cc1ccsc1)NC(=O)NC[C@H](Cc1ccc(O)cc1)N(C)C; target = ADRA2A (Homo sapiens, UniProt P08913); assay = cell-free assay; measurement = Ki; result = 47000 nM
Structure (SMILES) = CC(=O)N[C@@H](CCCNC(=N)N)C(=O)N[C@@H](Cc1ccc(O)cc1)C(=O)N[C@@H](CCCNC(=N)N)C(=O)N[C@@H](CC(C)C)C(=O)N[C@@H](CCCNC(=N)NC(=O)NCCCCN)C(=O)N[C@@H](Cc1ccc(O)cc1)C(N)=O; target = NPY4R (Homo sapiens, UniProt P50391); assay = calcium signal, antagonist; measurement = Kb; result = 847 nM
Structure (SMILES) = O=C(Cc1cccc(Br)c1)N[C@H]1CCOC1=O; target = sdiA; measurement = EC50; result = 1.7 nM
Structure (SMILES) = Cc1cc(O)cc(C)c1C[C@H](N)C(=O)N[C@H](CCCNC(=N)N)C(=O)N[C@@H](Cc1ccccc1)C(=O)N(C)CC(=O)N(C)Cc1cc(C(F)(F)F)cc(C(F)(F)F)c1; target = OPRD1 (Homo sapiens, UniProt P41143, D210A); measurement = Ki; result = 27.1 nM
Structure (SMILES) = CSCC[C@@H]1NC(=O)[C@H](Cc2ccccc2)NC(=O)[C@@H](NC(=O)[C@@H](C)N)CSC(=O)[C@H](C(C)C)NC(=O)[C@H](Cc2ccccc2)NC1=O; target = Histidine kinase AgrC (Listeria monocytogenes, UniProt A8E0G3); measurement = EC50; result = 96.9 nM
Structure (SMILES) = CSCC[C@H](NC(=O)[C@H](CCC(N)=O)NC(=O)[C@H](CCCCN)NC(=O)[C@H](CCCNC(=N)N)NC(=O)[C@H](Cc1ccc(O)cc1)NC(=O)[C@H](CCCNC(=N)N)NC(=O)[C@H](CO)NC(=O)[C@H](Cc1ccc(O)cc1)NC(=O)[C@H](CO)NC(=O)[C@H](CC(=O)O)NC(=O)[C@@H](NC(=O)[C@@H](N)Cc1ccccc1)[C@@H](C)O)C(=O)N[C@@H](C)C(=O)N[C@H](C(=O)N[C@@H](CCCCN)C(=O)N[C@@H](CCCCn1cc(C[C@H](NC(=O)CNC(=O)[C@H](CO)NC(=O)[C@H](CCCNC(=N)N)NC(=O)[C@H](CO)NC(=O)[C@H](CC(C)C)NC(=O)[C@H](CC(C)C)NC(=O)CNC(=O)[C@H](C)NC(=O)[C@H](CC(C)C)NC(=O)[C@H](CCCNC(=N)N)NC(=O)[C@H](Cc2c[nH]cn2)NC(=O)[C@@H](NC(=O)[C@@H](N)C(C)C)[C@@H](C)O)C(=O)N[C@H](C(=O)N[C@H](C(=O)N[C@@H](CCCCN)C(=O)N[C@@H](CC(N)=O)C(=O)N[C@@H](CC(N)=O)C(=O)N[C@@H](Cc2ccccc2)C(=O)N[C@H](C(=O)N2CCC[C@H]2C(=O)N[C@H](C(=O)N[C@@H](CC(N)=O)C(=O)N[C@H](C(=O)NCC(=O)N[C@@H](CO)C(=O)N[C@@H](CCCCN)C(=O)N[C@@H](C)C(=O)N[C@@H](Cc2ccccc2)C(N)=O)C(C)C)[C@@H](C)O)C(C)C)C(C)C)C(C)C)nn1)C(=O)N[C@@H](Cc1ccc(O)cc1)C(=O)N[C@@H](CC(C)C)C(=O)N[C@@H](C)C(=O)N[C@@H](C)C(=O)N[C@H](C(=O)N[C@@H](CC(C)C)C(=O)NCC(=O)N[C@@H](CCCCN)C(=O)N[C@@H](CCCNC(=N)N)C(=O)N[C@@H](Cc1ccc(O)cc1)C(=O)N[C@@H](CCCCN)C(=O)N[C@@H](CCC(N)=O)C(=O)N[C@@H](CCCNC(=N)N)C(=O)N[C@H](C(=O)N[C@@H](CCCCN)C(=O)N[C@@H](CC(N)=O)C(=O)N[C@@H](CCCCN)C(N)=O)C(C)C)C(C)C)C(C)C; target = ADCYAP1R1 (Homo sapiens, UniProt P41586); assay = cAMP accumulation, antagonist; test system = COS-7 transfected; setting = from pA2, single concentration, together with: PACAP-38; measurement = Kb; result = 2570 nM
Structure (SMILES) = CCCCCCCCCC(=O)CC(=O)NC1CCSC1=O (centres unmarked); target = sdiA; measurement = EC50; result = 0.8 nM
Structure (SMILES) = CSCC[C@H](NC(=O)[C@H](CCC(N)=O)NC(=O)[C@H](CCCCN)NC(=O)[C@H](CCCNC(=N)N)NC(=O)[C@H](Cc1ccc(O)cc1)NC(=O)[C@H](CCCNC(=N)N)NC(=O)[C@H](CO)NC(=O)[C@H](Cc1ccc(O)cc1)NC(=O)[C@H](CO)NC(=O)[C@H](CC(=O)O)NC(=O)[C@@H](NC(=O)[C@@H](N)Cc1ccccc1)[C@@H](C)O)C(=O)N[C@@H](C)C(=O)N[C@H](C(=O)N[C@@H](CCCCN)C(=O)N[C@@H](CCCCN)C(=O)N[C@@H](Cc1ccc(O)cc1)C(=O)N[C@@H](CC(C)C)C(=O)N[C@@H](C)C(=O)N[C@@H](C)C(=O)N[C@H](C(=O)N[C@@H](CC(C)C)C(=O)NCC(=O)N[C@@H](CCCCN)C(=O)N[C@@H](CCCNC(=N)N)C(=O)N[C@@H](Cc1ccc(O)cc1)C(=O)N[C@@H](CCCCN)C(=O)N[C@@H](CCC(N)=O)C(=O)N[C@@H](CCCCn1cc(C[C@H](NC(=O)CNC(=O)[C@H](CO)NC(=O)[C@H](CCCNC(=N)N)NC(=O)[C@H](CO)NC(=O)[C@H](CC(C)C)NC(=O)[C@H](CC(C)C)NC(=O)CNC(=O)[C@H](C)NC(=O)[C@H](CC(C)C)NC(=O)[C@H](CCCNC(=N)N)NC(=O)[C@H](Cc2c[nH]cn2)NC(=O)[C@@H](NC(=O)[C@@H](N)C(C)C)[C@@H](C)O)C(=O)N[C@H](C(=O)N[C@H](C(=O)N[C@@H](CCCCN)C(=O)N[C@@H](CC(N)=O)C(=O)N[C@@H](CC(N)=O)C(=O)N[C@@H](Cc2ccccc2)C(=O)N[C@H](C(=O)N2CCC[C@H]2C(=O)N[C@H](C(=O)N[C@@H](CC(N)=O)C(=O)N[C@H](C(=O)NCC(=O)N[C@@H](CO)C(=O)N[C@@H](CCCCN)C(=O)N[C@@H](C)C(=O)N[C@@H](Cc2ccccc2)C(N)=O)C(C)C)[C@@H](C)O)C(C)C)C(C)C)C(C)C)nn1)C(=O)N[C@H](C(=O)N[C@@H](CCCCN)C(=O)N[C@@H](CC(N)=O)C(=O)N[C@@H](CCCCN)C(N)=O)C(C)C)C(C)C)C(C)C; target = ADCYAP1R1 del89-109; assay = cAMP, antagonist; measurement = Kb; result = > 10000 nM
Structure (SMILES) = Cc1cccc(CC(=O)N[C@H]2CCOC2=O)c1; target = sdiA; measurement = EC50; result = 3.44 nM

Excerpt of the above:
Structure (SMILES) = CSCC[C@@H]1NC(=O)[C@H](Cc2ccccc2)NC(=O)[C@@H](NC(=O)[C@@H](C)N)CSC(=O)[C@H](C(C)C)NC(=O)[C@H](Cc2ccccc2)NC1=O; target = Histidine kinase AgrC (Listeria monocytogenes, UniProt A8E0G3); measurement = EC50; result = 96.9 nM
Structure (SMILES) = C[C@@H](Cc1ccsc1)NC(=O)NC[C@H](Cc1ccc(O)cc1)N(C)C; target = ADRA2A (Homo sapiens, UniProt P08913); assay = cell-free assay; measurement = Ki; result = 47000 nM
